Assay results gathered from unrelated publications.
Compare with care: the assays were run in different laboratories. ± gives the spread as reported.

| Structure (SMILES) | test | test system | conditions | measurement | result |
| --- | --- | --- | --- | --- | --- |
| Cn1cnc2c(F)c(Nc3ccc(Br)cc3Cl)c(C(=O)NOCCO)cc21 | population PK model | human, plasma | oral, sequential zero-first-order absorption, fed | absorption rate constant | 1.05 h⁻¹ |
| CNC(=O)c1c(C)oc2cc(Oc3ncnc4cc(OC)c(OC)cc34)ccc12 | population PK model | human | oral, without PPIs | absorption half-life | < 1 h |
| Cc1cn(-c2cc(NC(=O)c3ccc(C)c(Nc4nccc(-c5cccnc5)n4)c3)cc(C(F)(F)F)c2)cn1 | population PK model, bootstrap | human, both sexes, plasma | oral | absorption lag time (ALAG1) | 0.102 h |
| COc1ccc(-n2nc(C(N)=O)c3c2C(=O)N(c2ccc(N4CCCCC4=O)cc2)CC3)cc1 |  | human, plasma | oral, Base population PK model | absorption rate constant | 0.496 ± 0.0226 h⁻¹ |
| NC(N)=NCCC[C@@H](N)C(=O)N[C@@H](CCCN=C(N)N)C(=O)N1CCC[C@H]1C(=O)N1C[C@H](O)C[C@H]1C(=O)NCC(=O)N[C@@H](Cc1cccs1)C(=O)N[C@@H](CO)C(=O)N1Cc2ccccc2C[C@@H]1C(=O)N1[C@H](C(=O)N[C@@H](CCCN=C(N)N)C(=O)O)C[C@@H]2CCCC[C@@H]21 | popPK base model typical value | human | subcutaneous | absorption rate constant (ka) | 3.25 h⁻¹ |
| CC[C@@H]1CN(C(=O)NCC(F)(F)F)C[C@@H]1c1cnc2cnc3[nH]ccc3n12 | population PK modelling | human | oral, extended-release formulation, outliers excluded | absorption rate constant (Ka) | 0.0523 h⁻¹ |
| NC(=O)c1cnc2[nH]ccc2c1N[C@@H]1[C@@H]2CC3C[C@H]1C[C@@](O)(C3)C2 |  | healthy human volunteers, plasma | oral, population PK model estimate | absorption rate constant | 5.04 h⁻¹ |
| COc1cc(N2CCC3(CCN(C)CC3)CC2)ccc1Nc1ncc(Cl)c(Nc2ccccc2P(C)(C)=O)n1 | population PK model | human | oral, bootstrap median | absorption rate constant | 1.05 h⁻¹ |

For quick reference, copied from above:
| Structure (SMILES) | test | test system | conditions | measurement | result |
| --- | --- | --- | --- | --- | --- |
| Cc1cn(-c2cc(NC(=O)c3ccc(C)c(Nc4nccc(-c5cccnc5)n4)c3)cc(C(F)(F)F)c2)cn1 | population PK model, bootstrap | human, both sexes, plasma | oral | absorption lag time (ALAG1) | 0.102 h |
